# Results gathered from unrelated publications.
# A part holds a random share of what one study measured.

# Study 1
# Target: Replicase polyprotein 1ab, nsp13 helicase (rep, Severe acute respiratory syndrome coronavirus 2, UniProt P0DTD1)
# Action: inhibitor
# Tested at: 20 µM
Compound,inhibition [%]
CN1CCc2cc3c(cc2[C@H]1[C@@H]1OC(=O)c2c1ccc1c2OCO1)OCO3,2.51
CC[C@H]1[C@@H]2C[C@H]3[C@@H]4N(C)c5ccccc5[C@]45C[C@@H]([C@H]2[C@H]5O)N3[C@@H]1O,-0.27
CSc1cc2c(cc1C(F)(F)F)N(C(=O)Nc1cccnc1)CC2,-0.91
Cc1cc2c(C(C)C)c(O)c(O)c(C=O)c2c(O)c1-c1c(C)cc2c(C(C)C)c(O)c(O)c(C=O)c2c1O,28.1
CSc1ccc(C(=O)/C=C/c2cc(C)c(OC(C)(C)C(=O)O)c(C)c2)cc1,1.31
C[C@]1(O)C[C@@H](c2nc(-c3ccc4ccc(-c5ccccc5)nc4c3)c3c(N)nccn32)C1,7.99
CSCC[C@H](NC(=O)[C@H](Cc1ccccc1)NC(=O)CNC(=O)CNC(=O)[C@@H](N)Cc1ccc(O)cc1)C(=O)O,-3.07
NC(=O)c1cccc(-c2cccc(OC(=O)NC3CCCCC3)c2)c1,-1.58
CCn1cc(C(=O)O)c(=O)c2cc3c(cc21)OCO3,0.16
OCCn1cc(-c2cnc3nnn(Cc4ccc5ncccc5c4)c3n2)cn1,9.78
N[C@@H](Cc1cc(-c2ccc(Cl)cc2Cl)cc(CP(=O)(O)O)c1O)C(=O)O,28.9
CC(C)(C)NCC(O)c1cc(O)cc(O)c1 (centres unmarked),3.92
C[C@]12CC[C@H](O)CC1=CC[C@@H]1[C@@H]2CC[C@]2(C)C(c3cccnc3)=CC[C@@H]12,5.6
C/C(O)=C(\C#N)C(=O)Nc1ccc(C(F)(F)F)cc1,7.09
COc1ccccc1N1CCN(CCCCNC(=O)c2ccc(-c3ccc(C(C)=O)cc3)cc2)CC1,8.13
C[C@H]1COC2=C1C(=O)C(=O)c1c2ccc2c1CCCC2(C)C,18.1
CCn1cc(C(=O)O)c(=O)c2cc(F)c(N3CCNCC3)nc21,-2.88
CNCC(=O)c1ccc(O)c(O)c1,8.93
Oc1cc(O)cc(/C=C/c2ccc(O)c(O)c2)c1,1.06
Nc1ccn([C@H]2CO[C@@H](CO)S2)c(=O)n1,3.54
c1ccc2c(c1)Nc1ccccc1S2,-2.49
CCNC1(C(N)=O)CCN(c2ncnc3c2nc(-c2ccccc2Cl)n3-c2ccc(Cl)cc2)CC1,2.68
CC(C)CCN1c2nc(Nc3cc(F)c(O)c(F)c3)ncc2N(C)C(=O)C1C (centres unmarked),-1.33
O=C(NC1Cc2ccccc2N(C[C@@H](O)CO)C1=O)c1cc2cc(Cl)sc2[nH]1 (some centres unmarked),10.9
NC(=O)Nc1sc(-c2ccc(F)cc2)cc1C(N)=O,3.51

# Study 2
# Target: PABPC1L2, full length, GST fusion (mouse, UniProt A0ABA7IW68)
# Technique: RNAcompete
# Form: RNA
# Medium: in vitro
# Tested at: 20 nM
# Setting: 7-mer, probes averaged, single round
# Reference: mean of 7-mers
# Reading: higher = stronger binding
# Target sequence (chain): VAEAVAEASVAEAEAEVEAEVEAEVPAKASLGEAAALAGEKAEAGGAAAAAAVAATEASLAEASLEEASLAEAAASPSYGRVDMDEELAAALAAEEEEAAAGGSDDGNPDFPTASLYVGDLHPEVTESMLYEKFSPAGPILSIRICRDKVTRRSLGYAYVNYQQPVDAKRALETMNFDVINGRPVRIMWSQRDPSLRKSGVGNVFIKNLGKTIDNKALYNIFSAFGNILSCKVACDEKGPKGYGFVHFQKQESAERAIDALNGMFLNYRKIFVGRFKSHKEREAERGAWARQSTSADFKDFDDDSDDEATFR
Strand,7-mer Z-score
GUGCCGC,-0.291
CUAUGAG,-0.155
CAGUUUC,-0.369
AUAGGAU,0.0714
GGUUACA,-0.0047
CUAUAAG,-0.115
CGGACGC,-0.0627
GUUGGUG,-0.226

# Study 3
# Target: Replicase polyprotein 1ab, main protease (rep, Severe acute respiratory syndrome coronavirus 2, UniProt P0DTD1)
# Read-out: enzyme activity
# Action: inhibitor
# Tested at: 20 µM
# Setting: primary screen
SMILES,inhibition
COc1cc(C(=S)N2CCOCC2)cc(OC)c1OC,61.1%
CC(=O)O/N=C1/C(=O)N(Cc2cc(Cl)ccc2Cl)c2ccc(Cl)cc21,35.4%
CCO[C@@H](Cc1ccc(OCCn2c(C)ccc2-c2ccc(SC)cc2)cc1)C(=O)O,29.4%
O=C1c2cccc(O)c2C(=O)c2c(O)cc(CO)cc21,51.5%

# Study 4
# Target: RNA binding protein fox-1 homolog 2, RRM domain, GST-SBP tag (RBFOX2, Homo sapiens, UniProt O43251-10, residues 100-194)
# Technique: RNA Bind-n-Seq
# Form: RNA
# Medium: in vitro
# Tested at: 365 nM
# Setting: natural RNA segment, single round, ends assumed
# Reference: no-protein control
# Reading: higher = stronger binding
# All sequences stand within: GGGAGUUCUACAGUCCGACGAUC … UGGAAUUCUCGGGUGCCAA
# Target sequence (chain): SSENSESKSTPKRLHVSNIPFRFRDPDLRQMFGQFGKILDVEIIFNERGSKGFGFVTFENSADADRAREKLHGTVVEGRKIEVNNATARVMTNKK
Strand,RBNS enrichment (R)
CACUUUCAGGCCCUCCGGUGUGUUGCCUGGUAGGAUAACUGCUCCAAGCAGCUACCUACCUUGACUCCCAUAGCUUAGGACACAAGCCAGCUCUGAGCUACAUGAAGUAA,0.265
AACGAGGACUCUGGAUCCAGAUUUAAGUAGAUUCAAACACCACUUAACACCAGUAACCGAUUUUAGGACCUUGAGCAAGUUAAAUAACUUCUUCCUGCCUUGGUUUCCCC,0.182
UGCUCCUGUCACUCUUCAAAAACACCCCUUCUAUUACUGCCUCCGGGGAUGAAGCAGUAGCUAGGUUGCUUAACCUCCCCUCUCCAGCAGAGGCAUAAUCCAGAUAAGUA,1.62
GUACCCGGUGUCAGAACAUUUAAGCGUUCUAAAUAAUUUUGUGCUGCUAUCCAUCAGAACGUCUAUUCCAGCCUUGCCAGCUUAAGAACUUAGAGAAAUUAAGAGGUAUC,0.857
UUAAAGAGAGUUUUUUGGGGCCACCAAAUAUUUUGGAUCAUGCAGAGAAUAUAUAUUGUACUGUAGUAAUUUUGUAUUUACAUUUGUAUGAUGUGACAUAAUAGAUGUGA,0.666
CUGGCUCAGACCUCUUAGACUGGUCUCUCUUCCUCAGCUGCUGGGUUCUUUGUCUGCCCAGCUAUUGGAGGAUGGGAAGUGGAGGGAGGGUCACUCUUUCCCUCUUACUG,0.566
GUCUGUCUACUACACACUCUGGUUUCUCCCUGCACUGUCUUUUUACUGUUAGCCAAACAUUUUGCCUGUUUUCUGUCUCCAGAUGUGUGAUAAUUGGUGUGAGGUUGAAA,2.4
ACAAACACUGGACACCAUCACCUCUUUGGAACUGCCAGACCCUGGGAGUUCCCAGCGCGAAAGGUCUGCUCCCGUUCCUCUGUCUCUGUGAAUAAAUGUGAGUUCGUGCA,0.498

# Study 5
# Target: RING finger protein unkempt homolog, zinc fingers 1-6, SBP tag (UNK, Homo sapiens, UniProt Q9C0B0, residues 30-357)
# Chain of UniProt Q9C0B0 (30-357, looked up): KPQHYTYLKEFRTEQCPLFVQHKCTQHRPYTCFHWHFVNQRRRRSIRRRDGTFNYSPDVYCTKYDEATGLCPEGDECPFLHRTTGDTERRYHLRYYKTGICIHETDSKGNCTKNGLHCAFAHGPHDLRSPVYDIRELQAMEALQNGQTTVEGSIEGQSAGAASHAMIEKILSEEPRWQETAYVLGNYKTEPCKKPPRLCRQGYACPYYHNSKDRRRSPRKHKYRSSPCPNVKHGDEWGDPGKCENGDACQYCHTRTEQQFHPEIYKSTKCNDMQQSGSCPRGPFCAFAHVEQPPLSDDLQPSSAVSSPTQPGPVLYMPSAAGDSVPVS
# Technique: RNA Bind-n-Seq
# Form: RNA
# Medium: in vitro
# Tested at: 100 nM
# Setting: RNA with constant flanks, vertebrate orthologous sites, ends assumed
# Reference: input RNA pool
# Reading: higher = stronger binding
# All sequences stand within: GGGAGUUCUACAGUCCGACGAUC … CAACAGAGGAUUGAGCAUCA
Strand,bound/input enrichment
AUCAUAGCAAAAGAGCCAAGCAGUAGCAUUAGUGGUUUUUUUUUUUUGUAAAUGUAAAAUUAGAUCCAGACUUUGUUUCCUUACUCAAUUUUAAAAAUAAAAAAAAUACCUCAGUGCUAU,0.495 ratio
GAUGCAGUGUAUAAAUUAUCCAAGGCAGUGACUUCAGCUUUAUAUAUAUAUAUAUAUAUAUAGUUAGUUUUAAAAUCAUCUACUUUUAUUUAAACUUCUAGAUUGGAUUGUUUGCUAUUG,1.77 ratio
CAGCCAACUCCCUUAUCGGCCGGGCUGCUCACAUCGCCGUCCUCGACUCUGAGAUCUUCCUGGAGAAGUUCUUCCUUGUUGCAGGCCUCAAGUUCUUUCAGUAGAACUGUGACAGAUUCG,0.47 ratio
UCUCUCAUUUUGUAUGUCCAAAAAAGGUUUUGAAUUUUUAAACAAUUUGCUAGUUUUGAUUAGCUCUGCCCUCAUGAAGUAUUAUUAUAAUCACCACAAACAGAUAUCUGUCUGAAUUAC,0.595 ratio
UUACAGUCAUUGAUGGACUCUAUUUUUUUAUUAUUACUUGGACCUUGGUCGUUUUUAUACUAGCAAAAUGUCUUGUUUUAAUUUGUGUUUUUUGGCGGGGAGGGAGUGAACUUGCUGAUU,3.35 ratio
UGGACCUUGGAGCUGAACUGGGCUGGGGGACUAGAAAAGUAAAAUAAACUUGUAAAAUGAUAGCCAUACGCAGCUGCACAAUAGUACUAUCACAGGCACCUGUGUUAAUGUAUUUAUACA,0.576 ratio
UUUAAAGUCAUUUUUUCAUGUUUCCUGUAAAUAAUGGAUAAUCAUUUUUAUUUUAUUUUUAAGUGCUGUUUUAACAAUGUGGAUAGAUCAUAAAUGUACUUGCUGAAUUCAUUCAUUUUU,0.65 ratio
CCGCAUUAGCACCCUGCCAGCCCAGCAACCUCUCAGUGCACAGCUUCAAAUAGUAAGGUCUAGCUAGAUUUUUAUUUAAAAUAUGAAAAACUGCUUUUCCCAAGACGUUUUUUAAAGGAA,0.784 ratio

# Study 6
# Cell line: HEK-293T
# Read-out: pseudovirus infection
# Technique: FDA-approved drug library screen
# Organism: VSV pseudotyped with SARS-CoV-2 spike
# Tested at: 10 µM
# Time: 16 h
# Reference: vehicle-treated
SMILES,GFP-positive cells
c1ccc(Cc2nc3ccccc3[nH]2)cc1,80.8%
COc1cc2c(cc1OC)C1CC(=O)C(CC(C)C)CN1CC2 (centres unmarked),76.4%
CN(C)CCCN1c2ccccc2Sc2ccc(Cl)cc21,24.9%

# A few entries again (study 1):
Compound,inhibition [%]
Cc1cc2c(C(C)C)c(O)c(O)c(C=O)c2c(O)c1-c1c(C)cc2c(C(C)C)c(O)c(O)c(C=O)c2c1O,28.1
CSc1ccc(C(=O)/C=C/c2cc(C)c(OC(C)(C)C(=O)O)c(C)c2)cc1,1.31
C[C@]1(O)C[C@@H](c2nc(-c3ccc4ccc(-c5ccccc5)nc4c3)c3c(N)nccn32)C1,7.99
c1ccc2c(c1)Nc1ccccc1S2,-2.49
N[C@@H](Cc1cc(-c2ccc(Cl)cc2Cl)cc(CP(=O)(O)O)c1O)C(=O)O,28.9
CC(C)(C)NCC(O)c1cc(O)cc(O)c1 (centres unmarked),3.92
